Experimental data gathered from unrelated publications.
Lines come from different studies, so protocols differ. Several values in a cell are separate wells, animals, samples, runs or records. Numbers after ± are the reported error.
CDK5 with p25: Cyclin-dependent kinase 5, with p25 (CDK5, Homo sapiens, UniProt Q00535)
Chain of UniProt Q00535 (whole entry, looked up): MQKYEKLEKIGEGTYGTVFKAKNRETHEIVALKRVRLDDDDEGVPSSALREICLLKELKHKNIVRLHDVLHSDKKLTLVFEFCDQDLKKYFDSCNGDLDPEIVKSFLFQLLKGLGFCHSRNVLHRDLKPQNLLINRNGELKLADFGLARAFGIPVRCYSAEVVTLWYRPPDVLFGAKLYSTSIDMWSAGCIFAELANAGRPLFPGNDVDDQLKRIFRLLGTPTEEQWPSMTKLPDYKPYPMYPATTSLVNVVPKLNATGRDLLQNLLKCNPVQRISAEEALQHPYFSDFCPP
B1: human RAB8A; sequence looked up; chain MAKTYDYLFKLLLIGDSGVGKTCVLFRFSEDAFNSTFISTIGIDFKIRTIELDGKRIKLQIWDTAGQERFRTITTAYYRGAMGIMLVYDITNEKSFDNIRNWIRNIEEHASADVEKMILGNKCDVNDKRQVSKERGEKLALDYGIKFMETSAKANINVENAFFTLARDIKAKMDKKLEGNSPQGSNQGVKITPDQQKRSSFFRC
Chain of UniProt Q64663 (whole entry, unmodified, looked up): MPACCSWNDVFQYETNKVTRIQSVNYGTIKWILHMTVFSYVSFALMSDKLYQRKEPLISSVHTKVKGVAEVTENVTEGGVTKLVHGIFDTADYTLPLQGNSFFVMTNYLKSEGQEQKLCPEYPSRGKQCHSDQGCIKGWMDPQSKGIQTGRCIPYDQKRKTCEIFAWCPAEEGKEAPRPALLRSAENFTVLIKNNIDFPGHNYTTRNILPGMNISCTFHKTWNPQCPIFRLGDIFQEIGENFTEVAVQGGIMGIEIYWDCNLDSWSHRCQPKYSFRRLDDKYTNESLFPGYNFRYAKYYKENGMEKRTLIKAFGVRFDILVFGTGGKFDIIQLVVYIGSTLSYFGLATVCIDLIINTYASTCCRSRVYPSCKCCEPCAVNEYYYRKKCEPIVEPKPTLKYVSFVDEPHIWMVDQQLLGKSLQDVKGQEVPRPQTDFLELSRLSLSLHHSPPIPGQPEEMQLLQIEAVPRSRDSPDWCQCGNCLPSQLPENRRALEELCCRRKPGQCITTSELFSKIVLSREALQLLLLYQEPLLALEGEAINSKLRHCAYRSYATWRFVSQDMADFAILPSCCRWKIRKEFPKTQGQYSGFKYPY
Chain of UniProt Q5ANA3 (whole entry, looked up): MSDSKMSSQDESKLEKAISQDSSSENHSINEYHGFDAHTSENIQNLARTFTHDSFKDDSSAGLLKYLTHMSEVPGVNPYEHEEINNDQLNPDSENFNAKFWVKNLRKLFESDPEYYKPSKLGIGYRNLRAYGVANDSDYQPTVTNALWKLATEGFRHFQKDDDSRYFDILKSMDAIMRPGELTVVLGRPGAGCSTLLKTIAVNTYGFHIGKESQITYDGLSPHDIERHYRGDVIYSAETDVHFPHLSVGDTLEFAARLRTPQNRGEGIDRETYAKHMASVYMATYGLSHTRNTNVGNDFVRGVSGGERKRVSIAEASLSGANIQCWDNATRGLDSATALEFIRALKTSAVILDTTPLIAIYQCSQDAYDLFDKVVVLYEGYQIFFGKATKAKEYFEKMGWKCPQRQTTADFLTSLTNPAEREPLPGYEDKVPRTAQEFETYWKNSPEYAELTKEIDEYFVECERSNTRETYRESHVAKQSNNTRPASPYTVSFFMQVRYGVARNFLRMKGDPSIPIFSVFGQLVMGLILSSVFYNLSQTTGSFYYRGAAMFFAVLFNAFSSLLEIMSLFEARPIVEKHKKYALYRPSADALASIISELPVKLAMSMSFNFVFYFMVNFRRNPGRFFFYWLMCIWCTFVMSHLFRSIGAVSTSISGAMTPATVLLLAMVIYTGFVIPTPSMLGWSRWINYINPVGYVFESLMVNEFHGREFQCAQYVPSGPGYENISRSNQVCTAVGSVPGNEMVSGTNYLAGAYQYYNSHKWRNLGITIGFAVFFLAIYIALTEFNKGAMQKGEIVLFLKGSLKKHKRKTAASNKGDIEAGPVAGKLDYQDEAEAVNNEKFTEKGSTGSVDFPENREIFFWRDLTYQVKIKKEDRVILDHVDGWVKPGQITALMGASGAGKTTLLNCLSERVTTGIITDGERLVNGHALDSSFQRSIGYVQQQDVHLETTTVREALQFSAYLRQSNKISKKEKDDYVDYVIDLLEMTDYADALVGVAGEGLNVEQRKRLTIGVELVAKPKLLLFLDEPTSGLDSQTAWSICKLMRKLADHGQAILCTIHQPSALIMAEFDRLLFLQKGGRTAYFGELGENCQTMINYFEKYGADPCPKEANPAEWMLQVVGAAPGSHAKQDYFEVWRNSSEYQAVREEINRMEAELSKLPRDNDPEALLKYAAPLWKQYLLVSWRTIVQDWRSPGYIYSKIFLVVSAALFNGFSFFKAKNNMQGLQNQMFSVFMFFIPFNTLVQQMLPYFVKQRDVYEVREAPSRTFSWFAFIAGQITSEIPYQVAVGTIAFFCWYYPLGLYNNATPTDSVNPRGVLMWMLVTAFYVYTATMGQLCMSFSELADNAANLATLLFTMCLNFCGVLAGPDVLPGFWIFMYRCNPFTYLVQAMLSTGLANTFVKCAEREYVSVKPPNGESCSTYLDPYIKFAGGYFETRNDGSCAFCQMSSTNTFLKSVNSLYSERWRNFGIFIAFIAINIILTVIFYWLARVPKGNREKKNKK

Molecule	target or system	test	test system	setting	scale	measurement	value
human ME2 F68V		enzyme activity, activator, NADH absorbance	recombinant enzyme	range over 0 to 5 mM, pH 7.4	relative to: wild type	activation fold	1.1
B1 (human RAB8A)	CYB5R4 knockout human cells	PP6 interaction, 3xFLAG-PP6C IP-MS		concentration not given	relative to: CYB5R4 KO over parental	log2 fold change	-0.11
BzATP	P2X purinoceptor 7 (P2rx7, Rattus norvegicus, UniProt Q64663, Q143A)	ion current, agonist, two-electrode voltage clamp	Xenopus oocytes	11 µM		normalized current	0.605 and 0.772 and 0.504
human ME2 R91A		enzyme activity, NADH absorbance		with fumarate 3 mM, with: L-malate varied		Hill coefficient	1 ± 0.01
SSRP1 (human)	PP6C (human)	co-immunoprecipitation, IP-MS	CYB5R4 knockout cells	concentration not given	relative to: CYB5R4 knockout over parental	log2 fold change	-0.74
KDAFWDRCLSVINLMSSKMLQINA	CDK5 with p25	phosphotransferase activity, radiometric	peptide	concentration not given, 10% DMSO, with: histone substrate	relative to: p5-WT peptide	activity change	20%
milbemycin oxime	CDR1 (Candida albicans, UniProt Q5ANA3)	binding, microscale thermophoresis		19.5 nM		fraction bound	9.33%
11-deoxycorticosterone	CYP11B2 (human)	substrate binding, stopped-flow global kinetic fitting	purified enzyme	3-state conformational selection model, with: 10-fold excess adrenodoxin		rate constant k-1	1.79 ± 0.0977 s⁻¹
KEAFWDRCLSVINLMSSKMLQGNA	CDK5 with p25	phosphotransferase activity, radiometric	peptide	concentration not given, 10% DMSO, with: histone substrate	relative to: p5-WT peptide	activity change	71%
colistin	Klebsiella pneumoniae	broth microdilution	clinical isolate RKI-No_80/15			MIC	1 µg/mL
human ME2 T76N		enzyme activity, NADH absorbance		without fumarate, with: L-malate varied		Hill coefficient	1.67 ± 0.08
KEAFWDRCLSVINLMYSKMLQINA	CDK5 with p25	phosphotransferase activity, radiometric	peptide	concentration not given, 10% DMSO, with: histone substrate	relative to: p5-WT peptide	activity change	29%

A few entries again:
Molecule	target or system	test	test system	setting	scale	measurement	value
KEAFWDRCLSVINLMYSKMLQINA	CDK5 with p25	phosphotransferase activity, radiometric	peptide	concentration not given, 10% DMSO, with: histone substrate	relative to: p5-WT peptide	activity change	29%
